Assay results from different studies.
Each line is one published result; not all experiments were run side by side.
Cell line: A549/ATCC

Cc1cc(C)n(-c2nc(-c3ccc(Cl)cc3)c3c(NC(=O)c4ccccc4)nnc-3[nH]2)n1 — growth percent (NCI60 SRB; 10 µM): 104%
c1ccc2cc(Cn3cc[n+](Cc4ccc5ccccc5c4)c3)ccc2c1 — TGI (NCI60 five-dose): 22.9 µM
Cn1cncc1C1=CN(c2ncnc3[nH]cnc23)CCS1 — GI50 (lung cancer cell line): 29.5 µM
O=C(Nc1nnc2[nH]c(=S)[nH]c(-c3ccc(Cl)cc3)c1-2)c1ccccc1 — growth percent (NCI60 SRB; 10 µM): 96.7%
COc1ccc(-c2ccc(-c3ccc(C(=N)N)nc3)s2)cc1Cl — GI50 (NCI five-dose screen): 2.01 µM
Cc1n(Cc2ccc3ccccc3n2)cc[n+]1Cc1ccc2ccccc2c1 — TGI (NCI60 five-dose): 13.1 µM
S=C([S][Au-][P+](CCCCCC[P+]([Au-][S]C(=S)n1cccn1)(c1ccccc1)c1ccccc1)(c1ccccc1)c1ccccc1)n1cccn1 — GI50 (cell growth, NCI-60 screen; non-small cell lung cancer): 0.382 µM
O=C(Nc1nnc2n3c(Cc4ccccc4)n[nH]c3nc(-c3ccc(Cl)cc3)c1-2)c1ccccc1 — growth percent (NCI60 SRB; 10 µM): 103%
COc1ccc(-c2ccc(-c3ccc(C(=N)N)nc3)s2)cc1 — GI50 (NCI five-dose screen): 1.84 µM
Cc1cc(C)n(C(=S)[S][Au][PH](CCCCCC[PH]([Au][S]C(=S)n2nc(C)cc2C)(c2ccccc2)c2ccccc2)(c2ccccc2)c2ccccc2)n1 — log TGI (cell growth, NCI-60 screen; non-small cell lung cancer): > -4 log10 M
O=C(Nc1nnc2n3c(nc(-c4ccc(Cl)cc4)c1-2)SCC3=O)c1ccccc1 — growth percent (NCI60 SRB; 10 µM): 108%
CCCc1n(Cc2ccc3ccccc3n2)cc[n+]1Cc1ccc2ccccc2c1 — TGI (NCI60 five-dose): 11.8 µM

A few entries again:
COc1ccc(-c2ccc(-c3ccc(C(=N)N)nc3)s2)cc1 — GI50 (NCI five-dose screen): 1.84 µM
